Results pooled from the literature.
Parts stem from different laboratories: compare values within a part only.

Set 1
Target: RNA binding protein fox-1 homolog 2, RRM domain, GST-SBP tag (RBFOX2, Homo sapiens, UniProt O43251-10, residues 100-194)
Technique: RNA Bind-n-Seq
Molecule type: RNA
Medium: in vitro
Concentration: 365 nM
Setting: natural RNA segment, single round, ends assumed
Relative to: no-protein control
Reading: higher = stronger binding
Strand | RBNS enrichment (R)
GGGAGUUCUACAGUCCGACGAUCAACAUGUUUCCAGCAAGUAGAUGCCCCUGUGUGUGUUUUCCCUUGCCUUGUUUCCUGCCUUAUAUCUUGUAUUUCGACUUAUUACAGAGUUGAGGGUUCUUGCUUAAUUUUGGAAUUCUCGGGUGCCAA | 0.948
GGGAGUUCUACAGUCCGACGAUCCCUUCCCUUCCCUUCCCAUCCGCCAUAUUUCUUCAGCCUUUCUUCUCGAUCACCCGUGUAUUCUUUGACCAGUAAAUGACCACACCUCAAUGAUGGUAAAACAGCAUCAUUGGAAUUCUCGGGUGCCAA | 1.06
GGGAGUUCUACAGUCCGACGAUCACAGGAGGCCACAAACAACCUAACAAAACCUAGGAGACCCAGCCAAGUAAAGUCCCGAGGACUGGUCGCAGUGUUCAGCCCUUCCUCCUAGGGUCAGGGAAGGUGGUCUGUGGAAUUCUCGGGUGCCAA | 0.428
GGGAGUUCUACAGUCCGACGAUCAGAAAUCAGCCUGAGGCUGUCUUCACAGGCAGACAUCUAUCCUGCUUCCUCUUCCGGGGCUUCUGGGUGGGCAAACAAGGAAUAAAGGUGAUUCUUGGCUGUGGCCCACUUGGAAUUCUCGGGUGCCAA | 0.373
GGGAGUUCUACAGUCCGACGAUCACUCUAUUCAACCAGAGUUUUAUCACGCACCUCAUCGGGUCUCUCCUGGUUGCUGCCCCGAGGUGAUCGUCAUGGAAAAUGCUGAGAAGGUGGGAAUGGGAUGGGGUGGAUGGAAUUCUCGGGUGCCAA | 1.06
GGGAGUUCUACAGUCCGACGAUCGUUGCUUGUUGUGUUGUAGGCAUGCUCUUCUCACCUUCUGUCAAGGACCUGGUGCCCUGGGUGGUGGAGGGCUCAGCCCUCUUGAUUCAGUAGCUUCCCAAGCAGCUGCUUGGAAUUCUCGGGUGCCAA | 0.637
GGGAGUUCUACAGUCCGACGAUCUUAUCACCAAUGUAUAUCUCCAUUUAUUCAAUAACUUACUGGGGUAAAAUAACAGCAAUAAACCUAACCUUUUAACAGGGUCUAACAUGAGAGUUGGAGUCAAAGCCAUUUGGAAUUCUCGGGUGCCAA | 0.692
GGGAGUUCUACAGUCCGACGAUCCAGGGUUACUUAUGUCAUUGACAGGGAAAAGACUUUGUAUAAACAAUUAUGCACCAUCUAUUUUUGUACUCUUACUCAUGAUCCAUUUAAAAGUCUACUCAGCUCUAGAUUGGAAUUCUCGGGUGCCAA | 0.487
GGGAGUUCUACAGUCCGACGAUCCUCAAUAGUACAUGAGAACGUAUUGGCUUACCUUAUACAAUAAAUUAGUCCUUUUGUUUACUCAGUUUGGAGAGUAAUGUUUCUUCCACAGACAGUUUCAUUGAGUGUUAUGGAAUUCUCGGGUGCCAA | 0.52

Set 2
Target: Centromere-binding protein 1, full length, His-tagged (CBF1, Saccharomyces cerevisiae, UniProt P17106, residues 1-351)
UniProt P17106, sequence (whole entry, looked up): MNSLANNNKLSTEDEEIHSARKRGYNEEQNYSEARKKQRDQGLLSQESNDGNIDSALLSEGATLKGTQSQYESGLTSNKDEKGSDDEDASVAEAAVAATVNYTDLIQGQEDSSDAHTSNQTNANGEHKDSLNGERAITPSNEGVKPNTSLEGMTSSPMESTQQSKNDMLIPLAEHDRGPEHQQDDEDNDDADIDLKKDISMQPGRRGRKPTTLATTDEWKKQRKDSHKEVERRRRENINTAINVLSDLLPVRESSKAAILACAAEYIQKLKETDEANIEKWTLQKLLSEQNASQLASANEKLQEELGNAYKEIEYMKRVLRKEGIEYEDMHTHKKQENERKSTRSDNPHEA
Technique: competition protein-binding microarray
Molecule type: double-stranded DNA, one strand shown
Medium: in vitro
Concentration: 2 µM
Setting: whole 60-bp probe, lowest competitor level
With: Pho4 competitor, 0.05 µM
Reading: higher = stronger binding
Strand | fluorescence intensity
AAAAATCTCGCAGACCATGTGACGGCCGGTACTCCTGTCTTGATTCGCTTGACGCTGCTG | 623 a.u.
GACAAGTTACAACTGATCGTGACGGAGAACGGTAAGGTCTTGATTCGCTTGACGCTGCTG | 92.7 a.u.
TCATGGTGAATTTTGCACGTGGCCGTCCAAGTCCTTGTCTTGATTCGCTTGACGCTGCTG | 1230 a.u.
AAAGCGGTAATTTTTCACGTGTTTTCACATATCTATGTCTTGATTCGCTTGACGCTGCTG | 1000 a.u.
GATGGCCATTGATAACGCGTGAAATTTTCCAGGGTGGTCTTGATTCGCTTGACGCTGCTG | 77.2 a.u.
CTTCTGTAAATTTGATCCGTGGGTGGACGCGCCCCGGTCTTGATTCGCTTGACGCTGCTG | 80.7 a.u.
CGGGGTTAAGTTTGTCACTCCACTTGCTTGCAGCAGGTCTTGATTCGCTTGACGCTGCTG | 92.6 a.u.
GGTGGAAATAACAAAAGCGTGACGGCAAAGAAGCAAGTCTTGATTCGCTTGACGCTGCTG | 308 a.u.
GCCGTTGAGTGCTTCGACGTGGCCGTCGAGTCCCCTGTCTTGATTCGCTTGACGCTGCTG | 49.9 a.u.
GTATTATATGATGTATTCGTGCCAGTATCATGCATAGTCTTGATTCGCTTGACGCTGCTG | 101 a.u.
GCACCTCATCTAGCGGAGGTGCAGGGATGTACCAACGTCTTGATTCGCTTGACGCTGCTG | 54.5 a.u.
CATACCCAACCTTGCAAGGTGGGTGAAGATATTTGTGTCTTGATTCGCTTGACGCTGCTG | 55.7 a.u.
AGTGCCAGGTAAGTTGTCGTGGGTATCACCCGGAGAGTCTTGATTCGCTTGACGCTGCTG | 60.4 a.u.
AAAGCGGTAATTTGTTATGTGGGTGCAGATATCTATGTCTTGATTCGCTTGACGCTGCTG | 80 a.u.
GCGGAACGGCCCGCAATCGTGACTCGGCCAAAGGCGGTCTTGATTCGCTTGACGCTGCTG | 71.4 a.u.
AAAGCGGTAATTTGTAGGGTGGGTGCAGATATCTATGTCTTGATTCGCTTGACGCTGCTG | 75.2 a.u.
AACTGGCATAATCGAGTTGTGACGAACAAACTTAACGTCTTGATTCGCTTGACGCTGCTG | 80.1 a.u.
GCATTATACCTAAAGCACGCAGAGAAACCTCTCTTTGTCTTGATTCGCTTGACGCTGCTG | 69.9 a.u.
CCATTGGAAACAGTGCTCGTGCATCTTGATGTTATTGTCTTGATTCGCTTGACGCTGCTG | 105 a.u.
CATACCCAACCTTGGGGTGTGGGTGAAGATATTTGTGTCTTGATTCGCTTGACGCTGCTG | 70.3 a.u.
TTCTGAATGGTGTTGGTCGTGGCCGTACCGATTTATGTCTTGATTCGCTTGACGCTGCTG | 70 a.u.
GTCTTGTCTCATTGCGTGGTGGGTGTCCCCACTTCAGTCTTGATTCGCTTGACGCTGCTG | 84.8 a.u.
CTTTCCCGATCTTGTCACATGACTTTAGCACATTTGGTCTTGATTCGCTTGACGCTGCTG | 2470 a.u.

Set 3
Target: RING finger protein unkempt homolog, zinc fingers 1-6, GST-SBP tag (UNK, Homo sapiens, UniProt Q9C0B0, residues 30-357)
UniProt Q9C0B0, sequence (30-357, looked up): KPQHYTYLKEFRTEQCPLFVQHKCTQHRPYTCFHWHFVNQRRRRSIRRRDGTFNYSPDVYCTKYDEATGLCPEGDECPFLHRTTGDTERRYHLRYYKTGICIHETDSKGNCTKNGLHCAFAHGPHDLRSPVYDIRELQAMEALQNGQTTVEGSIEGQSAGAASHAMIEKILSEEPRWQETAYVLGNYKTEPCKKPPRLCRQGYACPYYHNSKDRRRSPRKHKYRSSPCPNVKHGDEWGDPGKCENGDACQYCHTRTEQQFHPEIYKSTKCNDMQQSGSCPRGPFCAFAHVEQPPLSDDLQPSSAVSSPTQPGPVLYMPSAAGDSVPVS
Technique: RNA Bind-n-Seq
Molecule type: RNA
Medium: in vitro
Concentration: not given
Setting: RNA with constant flanks, human and mouse sites, ends assumed
Relative to: input RNA pool
Reading: higher = stronger binding
Strand | bound/input enrichment
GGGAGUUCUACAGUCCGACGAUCAUUGAGUGGGGAGCUUGUGCACUUGUUCUCACAGGAAACACAGUCAUCUUUGCAACUAUACUAGGCUUUUUCUUGGUCUUUGGAAGCAAUGACGACUUCAGCUGGCAGCAGUGGUGAAAACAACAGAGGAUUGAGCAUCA | 0.378 ratio
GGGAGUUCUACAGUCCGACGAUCGCAAAGAUGGUAUGUUCAGAUUCUCCAUUUGCUGGGGCGCUAAGAAAACGACUGCUUGUACUCCAACGUGUCUUUUAUGCACUUUCUAAUAAGUACCAUGACAAAGGCAAAGUGAAACAGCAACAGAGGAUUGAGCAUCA | 0.197 ratio
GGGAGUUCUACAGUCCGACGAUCCCGAAGCCUUUCUCUCAAAUCUAGUAGUUAACAAGACCAUCUUUGCUAAAGUAGACAGAUUAGCAGGAAUUAUCAACUUCCAGAGACCCAAGGAUCCAAAUAAUUUAUUAAAUGACUGGUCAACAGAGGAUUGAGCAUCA | 2.61 ratio
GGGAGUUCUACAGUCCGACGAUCGAAAUUUCAAAAGCAGGGGAGUAUGUACGAGUUAAACUACAACUGAAUCCAGCUGCUAGGGAAUUUAAACCAGAUGUAAAGUCUAAACCAGUGUCAGAUUCAUCUUCAGCACCAGCUUUUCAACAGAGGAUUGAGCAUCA | 0.215 ratio
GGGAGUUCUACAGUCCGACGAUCUCUAUUGCUACAAGAGAGGGAGUUACCGUUUUGUAUUCUAAACUGAUCAGCAAUAAGGAAGUAGUACCUUUGCCUCAACAGGUUUUAUGCCUCAAAGGACCACAGUUGCCUGAUUUUGAACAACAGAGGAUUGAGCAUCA | 0.11 ratio
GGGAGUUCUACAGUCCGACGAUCCAAGCUGAACAGCUUGCUGCUGAGACUGAAGGCAUCUCUGAGCUUCCACAUGUAGAACGAAAUUUACAGGAGAUCCAGCAAGCUGGUGAGCGCCUGCGUUCCCGUACCCUCACACGCACACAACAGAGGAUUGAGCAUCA | 0.326 ratio
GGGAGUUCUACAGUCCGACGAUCGCUUCUAAAAUGUGAUUAUCGACCAUGGUAUGCAUGAUCGUUGUAAUUGUUGACAUUCCUUUUAGAAGUUGUGAAAUGUUACAACUUGUGCUUAUGUAGACACAAUCUUCUGUCUCAGUACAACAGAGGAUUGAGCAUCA | 0.485 ratio
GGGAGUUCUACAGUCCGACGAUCAUGAAGCCAAAUAUUGAACCUCCUGAGAAUGUGGAGUGGAGUGGUGCUGAAGCCUCCAUGUUUAGAGUCCUCAUUGGUACUUACUACGAUAACUUUUGUGCCAUUGCUAGGCUAAUUGGGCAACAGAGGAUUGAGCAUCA | 0.306 ratio
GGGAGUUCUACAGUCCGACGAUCCCAGAUGGCUGGUUCUCUAAAGGCAGCAACUACAGUGAAAUCCUAGACAAGUAUUUUAAGAACUUUGAUAAUGGUGAUUCUCGCCUGGACUCCAGUGAAUUCCUGAAGUUUGUGGAACAGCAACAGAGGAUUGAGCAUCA | 1.05 ratio
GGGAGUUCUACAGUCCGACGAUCUCAAGGCUGAGGAAAGAGAACGAUCUCUUUGAUAACUACAUGCAGCAGGAUGCUCACGAGUUCUUAAAUUAUUUGCUAAACACUAUUGCGGACAUCCUGCAGGAAGAGAAGAAACAGGAACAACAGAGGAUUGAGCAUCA | 0.283 ratio
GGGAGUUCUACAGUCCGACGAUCGAUACAGCCUAUCCUGAAACCAAUGAUGCUAUUCCUAUGAUCAGCAAACUGAGGUACAAUCCCAGAUUUGACAAAGCUUUCAAACAUGUGUUUGGAAAGACUCUUAUUUGUCGUAGCAUGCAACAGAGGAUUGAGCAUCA | 0.331 ratio

Set 4
Target: Histone acetyltransferase KAT6A, both winged helices, GST fusion (KAT6A, Homo sapiens, UniProt Q92794, residues 1-181)
Technique: protein binding microarray
Molecule type: double-stranded DNA, one strand shown
Medium: in vitro
Concentration: not given
Setting: 8-mer, flanks averaged, mean of 2 arrays, mostly near background
Relative to: not given
Reading: higher = stronger binding
Residues (chain): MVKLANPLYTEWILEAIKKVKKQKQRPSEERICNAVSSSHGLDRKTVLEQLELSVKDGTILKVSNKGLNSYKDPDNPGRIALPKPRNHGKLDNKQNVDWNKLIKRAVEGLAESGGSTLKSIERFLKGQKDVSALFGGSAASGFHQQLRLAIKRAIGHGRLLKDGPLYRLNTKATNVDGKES
Strand | E-score
AGTGACAA | -0.156
TCGGTCCA | -0.1
ATGAGCAT | -0.0388
GTAAGGTA | -0.135
ACCCTCCG | 0.101
AACCTGCG | 0.0916
AAGTCCAT | -0.162
CTTCCGAA | 0.101
CTGAACAA | 0.076
TTGTAAAA | -0.0985
ATCTGCAA | -0.228
CTACGGAG | 0.146
ACCAAAAA | 0.0317
AAAATGTT | 0.00219
ATTCGAGA | -0.106
CCTGAATA | -0.0383

For quick reference, copied from above (set 2):
Strand | fluorescence intensity
GTATTATATGATGTATTCGTGCCAGTATCATGCATAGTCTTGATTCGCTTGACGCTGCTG | 101 a.u.
GCACCTCATCTAGCGGAGGTGCAGGGATGTACCAACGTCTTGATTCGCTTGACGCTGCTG | 54.5 a.u.
CATACCCAACCTTGCAAGGTGGGTGAAGATATTTGTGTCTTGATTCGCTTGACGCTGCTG | 55.7 a.u.
AGTGCCAGGTAAGTTGTCGTGGGTATCACCCGGAGAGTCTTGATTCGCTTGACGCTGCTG | 60.4 a.u.
AAAGCGGTAATTTGTTATGTGGGTGCAGATATCTATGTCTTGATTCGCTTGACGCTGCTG | 80 a.u.
GCGGAACGGCCCGCAATCGTGACTCGGCCAAAGGCGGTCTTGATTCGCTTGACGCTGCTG | 71.4 a.u.
AAAGCGGTAATTTGTAGGGTGGGTGCAGATATCTATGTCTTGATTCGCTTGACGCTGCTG | 75.2 a.u.
